# Assay results pooled from the literature.
# Compare with care: the assays were run in different laboratories. Numbers after ± are the reported error.
SMILES,test,system,setting,half-life
O=C(NC[C@H](O)CO)c1ccncc1Nc1ccc(I)cc1F,,human,"oral, 45 mg, single dose alone",5.12 h
CCS(=O)(=O)N1CC(CC#N)(n2cc(-c3ncnc4[nH]ccc34)cn2)C1,,"healthy Chinese human, plasma","oral, once daily, 2 to 10 mg, day 10",5.7 to 7.6 h
CC(=O)O[C@H]1C(=O)[C@@]2(C)[C@H]([C@H](OC(=O)c3ccccc3)[C@]3(O)C[C@H](OC(=O)[C@H](O)[C@@H](NC(=O)c4ccccc4)c4ccccc4)C(C)=C1C3(C)C)[C@]1(OC(C)=O)CO[C@@H]1C[C@@H]2O,non-compartmental,"human patients, plasma","intravenous, 200 mg/m^2, added: lenvatinib 6 mg twice daily",6.77 ± 0.42 h
COc1cc(N2CCC(N3CCN(C)CC3)CC2)ccc1Nc1ncc(Cl)c(Nc2ccccc2P(C)(C)=O)n1,,"healthy humans, plasma","oral, 90 mg, geometric mean, added: gemfibrozil",33.9 h
CN(Cc1nc2c(N)nc(N)nc2[nH]c1=O)c1ccc(C(=O)N[C@@H](CCC(=O)O)C(=O)O)cc1,,"human, plasma","oral, 20 mg methotrexate, day 1, alone, arithmetic mean",12 h
O=C(/C=C/c1cccc(S(=O)(=O)Nc2ccccc2)c1)NO,,"human moderate liver dysfunction, plasma","intravenous, 400 mg/m^2, 30 min infusion, cycle 1 day -7",2.4 h
O=CC[C@@H](O)[C@H](O)[C@H](O)CO,HPLC-fluorescence,"human patients, plasma","oral, 30 mg/kg/day, cycle 2",5.3 ± 1.1 h
COCCCCn1c(C(=O)N(CC(C)C)[C@@H]2CNC[C@H](C(=O)N3CCOCC3)C2)nc2ccccc21,,"non-elderly human, plasma","oral, 80 mg once daily, day 1",10.3 h
CCCCC1(CCCC)CN(c2ccccc2)c2cc(SC)c(OCC(=O)N[C@@H](C(=O)NCC(=O)O)c3ccccc3)cc2S(=O)(=O)C1,LC-MS/MS,"human, plasma","oral, 5 mg, single dose, before breakfast",2.64 h
CCc1cnn2c(NCc3ccc[n+]([O-])c3)cc(N3CCCC[C@H]3CCO)nc12,,"human, plasma","intravenous, dose not given",2.31 to 2.95 h
NC(=O)N1CCC(CC(=O)N2CCC([C@H]3c4ncc(Br)cc4CCc4cc(Cl)cc(Br)c43)CC2)CC1,,"human, plasma","oral, 200 mg twice daily, cycle 1 day 15, multiple dose, added: gemcitabine 600 mg/m2",5.32 h
O=C(c1ccc(OCCN2CCCCC2)cc1)c1c(-c2ccc(O)cc2)sc2cc(O)ccc12,,"healthy humans, plasma","oral, 60 mg, added: chronic green tea",22.7 h
CC[C@@]1(O)C(=O)OCc2c1cc1n(c2=O)Cc2cc3c(CN(C)C)c(O)ccc3nc2-1,,human patients,"oral, 4 mg, day 15, geometric mean, added: pazopanib 800 mg",4.87 h
O=c1[nH]c(=O)c(Cc2cccc(C(F)(F)F)c2)c([C@H]2CC[C@H](c3ccccc3)CC2)[nH]1,,"human, male, plasma","oral, 150 mg 14C solution, geometric mean",18.8 h
CCCC[C@H](NC(C)=O)C(=O)N[C@H]1CCC(=O)NC[C@@H](C(=O)N[C@@H](Cc2c[nH]c3ccccc23)C(N)=O)NC(=O)[C@H](CCCNC(=N)N)NC(=O)[C@@H](Cc2ccccc2)NC(=O)[C@H](Cc2c[nH]cn2)NC1=O,,"healthy human volunteers, plasma","subcutaneous, 3.0 mg once daily, day 7",12.6 h
C[C@@H]1CCC[C@H](n2cnc(-c3cc(Cl)ccc3-n3cc(Cl)nn3)cc2=O)c2cc(ccn2)-c2c(cnn2C(F)F)NC1=O,,"human, fasted","20 mg once daily, day 14",18.1 h
CNc1nc(Nc2ccc(-n3cnc(C)n3)c(OC)c2)nc2c1CC[C@H]2c1ccc(F)cc1,,"elderly humans, both sexes, plasma","oral, 900 mg single dose",63 h
COC(=O)c1ccc2c(c1)NC(=O)/C2=C(\Nc1ccc(N(C)C(=O)CN2CCN(C)CC2)cc1)c1ccccc1,,"human, hepatic impairment Child-Pugh A, plasma","oral, 100 mg single dose, geometric mean",41.1 h
CC(C)(/C=C(\C#N)C(=O)N1CCC[C@@H](n2nc(-c3ccc(Oc4ccccc4)cc3F)c3c(N)ncnc32)C1)N1CCN(C2COC2)CC1,,"human, male, plasma","oral, 400 mg tablet, single dose, range of individual values",1.41 to 6.98 h
N[C@@H](CC(=O)N1CCn2c(nnc2C(F)(F)F)C1)Cc1cc(F)c(F)cc1F,,"human, both sexes, plasma","oral, dose not given",11.5 ± 1.4 h
O=C(COc1ccc(Cl)cc1)NC12CC(c3nnc([C@H]4C[C@@H](OC(F)(F)F)C4)o3)(C1)C2,,"healthy humans, plasma","oral, 15 to 800 mg single dose, fasted, mean across doses",31 to 45 h
COc1cc(Nc2ncc3c(n2)-c2ccc(Cl)cc2C(c2c(F)cccc2OC)=NC3)ccc1C(=O)O,,"human, plasma","oral, 50 mg twice daily, day 7, steady state",21 h
CC[C@@H]1C(=O)N(C)c2cnc(Nc3ccc(C(=O)N[C@H]4CC[C@H](N5CCN(CC6CC6)CC5)CC4)cc3OC)nc2N1C(C)C,,"human, plasma","intravenous infusion, 300 mg over 2 h, first infusion, geometric mean",129 h
CN[C@@H]1COc2c(S(=O)(=O)NC(=O)Nc3c4c(cc5c3CCC5)CCC4)cnn2C1,,human,"oral, 600 mg, high-fat meal, mean",4.2 h
Cc1ccc(NC(=O)c2ccc(CN3CCN(C)CC3)cc2)cc1Nc1nccc(-c2cncc(-c3oncc3C)c2)n1,,"older healthy human adults, plasma","oral, 325 mg single dose, fed, mean",32.7 h
CC(C)(Sc1ccncc1-c1ccc(C#N)c2ccccc12)C(=O)O,,human,"oral, 15 mg, added: febuxostat 40 mg",10.6 h
CNC(=O)c1c(C)oc2cc(Oc3ncnc4cc(OC)c(OC)cc34)ccc12,,"human, plasma","oral, 5 mg, fasted",33.6 h
CCn1c(C(=O)c2cc(C)cc(C#N)c2)c(C(C)C)c(=O)[nH]c1=O,,"healthy humans, plasma","oral, 600 mg once daily, 7 days",20.7 ± 3.7 h
CN1CC[C@@H](NC(=O)Nc2ccc(C#N)cc2)C[C@@H]1c1nc2ccccc2[nH]1,item: total compound,"human, severe hepatic impairment, plasma","oral, 100 mg, fasted, single dose, arithmetic mean",20.7 ± 3.5 h
COc1cc2ncnc(Nc3ccc(F)c(Cl)c3)c2cc1OCCCN1CCOCC1,,"human, plasma","oral, 250 mg, added: vorinostat 300 mg",25.1 ± 5.5 h
Cn1cnc2c(F)c(Nc3ccc(Br)cc3Cl)c(C(=O)NOCCO)cc21,,"human cancer patients, plasma","oral, 75 mg, cycle 1 day 1",2.97 ± 0.89 h
Br.Cc1ccc(Sc2ccccc2N2CCNCC2)c(C)c1,,"healthy humans, plasma",oral,59 to 69 h
CCCOc1ccc([C@H]2CNC(=O)N2c2ccc3[nH]cnc3c2)cc1,,"human, fasted, elderly, CSF","oral, 300 mg twice daily, capsule, day 7, geometric mean",6.22 h
C=C(C)[C@@H]1CC[C@]2(NCCN3CCS(=O)(=O)CC3)CC[C@]3(C)[C@H](CC[C@@H]4[C@@]5(C)CC=C(C6=CC[C@@](CF)(C(=O)O)CC6)C(C)(C)[C@@H]5CC[C@]43C)[C@@H]12,,healthy human volunteers,"oral, 200 mg, capsule, moderate-fat meal, geometric mean",26.2 h

# For quick reference, copied from above:
SMILES,test,system,setting,half-life
CCn1c(C(=O)c2cc(C)cc(C#N)c2)c(C(C)C)c(=O)[nH]c1=O,,"healthy humans, plasma","oral, 600 mg once daily, 7 days",20.7 ± 3.7 h
COc1cc(Nc2ncc3c(n2)-c2ccc(Cl)cc2C(c2c(F)cccc2OC)=NC3)ccc1C(=O)O,,"human, plasma","oral, 50 mg twice daily, day 7, steady state",21 h
N[C@@H](CC(=O)N1CCn2c(nnc2C(F)(F)F)C1)Cc1cc(F)c(F)cc1F,,"human, both sexes, plasma","oral, dose not given",11.5 ± 1.4 h
CCCCC1(CCCC)CN(c2ccccc2)c2cc(SC)c(OCC(=O)N[C@@H](C(=O)NCC(=O)O)c3ccccc3)cc2S(=O)(=O)C1,LC-MS/MS,"human, plasma","oral, 5 mg, single dose, before breakfast",2.64 h
C[C@@H]1CCC[C@H](n2cnc(-c3cc(Cl)ccc3-n3cc(Cl)nn3)cc2=O)c2cc(ccn2)-c2c(cnn2C(F)F)NC1=O,,"human, fasted","20 mg once daily, day 14",18.1 h
